Measurements pooled from the literature.
Every numbered part comes from another study and shows a few of its results, in no order. Positions count from the first letter of the parent shown.

Block 1
Target: ABI1, truncated, D143A, DHFR fusion (Arabidopsis thaliana)
Technique: DHFR PCA, deep sequencing
Medium: yeast
Notes: methotrexate growth selection, single substitutions
Added: (+)-ABA 0.11 µM
Reference: wild-type fitted maximum
Direction: higher = stronger binding
Measurement: relative binding score
Starting sequence: PYL1, truncated, DHFR fusion (Arabidopsis thaliana); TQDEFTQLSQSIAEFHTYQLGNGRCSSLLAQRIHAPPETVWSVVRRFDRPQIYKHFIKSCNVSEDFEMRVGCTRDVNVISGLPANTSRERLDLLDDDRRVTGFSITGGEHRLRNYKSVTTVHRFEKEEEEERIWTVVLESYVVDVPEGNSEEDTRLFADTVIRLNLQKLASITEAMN; partner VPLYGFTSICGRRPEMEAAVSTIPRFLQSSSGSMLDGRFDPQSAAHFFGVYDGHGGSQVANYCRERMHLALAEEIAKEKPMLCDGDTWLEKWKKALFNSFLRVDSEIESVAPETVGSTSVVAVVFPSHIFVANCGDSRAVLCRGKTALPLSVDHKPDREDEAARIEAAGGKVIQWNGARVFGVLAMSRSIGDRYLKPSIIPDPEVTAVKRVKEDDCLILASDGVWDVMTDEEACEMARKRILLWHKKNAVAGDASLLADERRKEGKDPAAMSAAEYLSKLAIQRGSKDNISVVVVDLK
F103H: -3.01%
Q7H: 32.9%
K168Q: 20.4%
T39R: 24.7%
H55A: 43.1%
S87P: 11.9%
V40D: -6.4%
I172E: 6.49%
R90A: -3.29%
I52H: 4.76%
S9A: 41.6%
L29S: 0.724%
E130F: 17.7%
G107M: -1.76%
Y18L: 3.49%
D153R: -1.65%
A30I: 19.5%
G102E: 1.11%

Block 2
Target: CREB5, bZIP domain (human)
Technique: DHFR protein complementation
Medium: yeast
Notes: single substitutions, most at no-binding floor
Reference: wild-type JUN-FOS pair
Direction: higher = stronger binding
Measurement: binding fitness
Starting sequence: JUN, bZIP domain (human); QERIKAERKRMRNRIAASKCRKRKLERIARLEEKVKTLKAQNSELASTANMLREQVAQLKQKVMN; partner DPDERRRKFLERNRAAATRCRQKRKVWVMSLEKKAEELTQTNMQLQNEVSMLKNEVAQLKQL
L31A: -0.692 natural log
T48C: -0.442 natural log
N42Q: -0.593 natural log
N42T: -1.07 natural log
S43L: -0.267 natural log
Q41C: -1.06 natural log
V35G: -1.34 natural log
M51T: -0.228 natural log
Q41N: -0.639 natural log
S47K: -0.0867 natural log
E54A: -0.424 natural log
R30H: -0.145 natural log
A40W: -0.628 natural log
E33H: -0.489 natural log
A46Y: -0.518 natural log
L38R: -1.31 natural log
L59P: -1.31 natural log
Q58A: -0.186 natural log

Block 3
Organism: Saccharomyces cerevisiae
Read-out: binding
Technique: yeast competitive growth sequencing
Molecule type: peptide
Strain: cyclin A1-Cln2 strain
Medium: peptide tiling library
Notes: pooled screen
Direction: direction not given
Measurement: enrichment score
QNPCGSKACRRLFGPV: -2.06
RTEALEQGGLPKKLIF: -1.13
NEGVSNAVRRSLYIRD: -0.479
SPPRGRRLFPPGPAGF: -0.361
RQVRRDLFAF: -1.15
GTPKRCLDLSNLSSGE: 0.274

Mixed results
PhoQ, residues 284 288 289 292 302 303 TLSLKA — fold induction (PhoP, residues 12 14 15 18 19 MHTVL (Escherichia coli, UniProt P23836); Sort-seq, measured: YFP reporter; E. coli; PhoQ-PhoP variant library, added: 10 µM Mg2+; reference: high Mg2+ state, higher = stronger signaling): 2.12

Repeated from above (block 1):
K168Q: 20.4%
T39R: 24.7%
H55A: 43.1%
